Measured values gathered from unrelated publications.
Protocols differ between the studies behind these lines. ± gives the spread as reported.
Organism: HIV-1

| SMILES | assay | test system | conditions | scale | EC50 |
| --- | --- | --- | --- | --- | --- |
| CC(C)(C)OC(=O)N1CCC(C(=O)N[C@@H](Cc2ccc3ccccc3c2)C(=O)O)(c2ccc3ccccc3c2)CC1 | viral replication | pNL4-3 wild type |  |  | ~58000 nM |
| COc1cc(F)c(C(=O)c2ccnc(Nc3ccc(C#N)cc3)n2)c(F)c1 | cytoprotection | MT4, IIIB wild type | 5 days |  | 5 nM |
| Nc1ccn(C2OC(CO)C3CC=CCC32)c(=O)n1 (mixture of isomers) | viral replication | human PBM cells, LAI |  |  | > 100000 nM |
| CC(=O)NCCN(CC(=O)NCCN(CC(=O)NCCN(CC(=O)NCCC(N)=O)C(=O)C[C@@H](N)Cc1ccccc1)C(=O)C[C@@H](N)Cc1ccccc1)C(=O)C[C@@H](N)CCCNC(=N)N | viral replication, measured: reverse transcriptase activity | PBMC, LAI |  |  | 85000 nM |
| COc1ccc(-n2c(SCCCN3CCOCC3)nnc2[C@H](Cc2ccccc2)NC(=O)Cc2c(C)[nH]c3ccccc23)cc1 | HIV-1-induced cytopathicity, MTT | MT-4, wild type |  | 50% protection | 590 ± 80 nM |
| Cc1cc(C)cc(S(=O)(=O)c2c(C(N)=O)[nH]c3ccc(Cl)cc23)c1 | viral replication | MT-4, IIIB |  |  | 4.1 ± 1.4 nM |
| Cc1cc(C#N)cc(C)c1Oc1nc(NC2CCN(Cc3ccccc3C#N)CC2)nc2ccccc12 | viral replication, luciferase reporter | TZM-bl, NL4-3 wild type |  |  | 27.8 ± 6.45 nM |
| CC(=O)NCCN(CC(=O)NCCN(CC(=O)NCCN(CC(=O)NCCC(N)=O)C(=O)C[C@@H](N)Cc1ccccc1)C(=O)C[C@@H](N)CCCNC(=N)N)C(=O)C[C@@H](N)CCCNC(=N)N | viral replication, measured: reverse transcriptase activity | PBMC, LAI |  |  | 95000 nM |
| Cc1ccc(CN2CCC(Nc3nc(Oc4c(C)cc(C#N)cc4C)c4ccccc4n3)CC2)cc1 | viral replication, luciferase reporter | TZM-bl, NL4-3 wild type |  |  | 11.5 ± 4.12 nM |
| CC(=O)OCC1OC(n2cnc3c(Cl)nc(Cl)nc32)C2CC=CCC12 (mixture of isomers) | viral replication | human PBM cells, LAI |  |  | 24600 nM |
| Cc1cc(/C=C/C#N)cc(C)c1Oc1nc(NC2CCN(Cc3ccc(S(N)(=O)=O)cc3)CC2)nc2ncccc12 | viral replication, luciferase reporter | TZM-bl, NL4-3 wild type |  |  | 6.67 ± 1.93 nM |
| COc1cccc2c(Oc3c(C(F)(F)F)ccn(Cc4n[nH]c(=O)n4C)c3=O)cc(C)nc12 | viral cytopathicity | MT4, wild type |  |  | > 244000 nM |
| CC(=O)OCC1OC(n2cc(C)c(=O)[nH]c2=O)C2CC=CCC12 (mixture of isomers) | viral replication | human PBM cells, LAI |  |  | 82000 nM |
| C=CCSc1nnc([C@H](Cc2ccccc2)NC(=O)Cc2c(C)[nH]c3ccccc23)n1-c1ccc(OC)cc1 | HIV-1-induced cytopathicity, MTT | MT-4, wild type |  | 50% protection | 2050 ± 470 nM |
| Cc1cc(C#N)cc(C)c1Oc1nc(NC2CCN(Cc3ccc(C(N)=O)cc3)CC2)nc2ncccc12 | viral replication, luciferase reporter | TZM-bl, NL4-3 wild type |  |  | 1.08 ± 0.41 nM |
| Nc1ncnc2c1ncn2C1OC(CO)C2CC=CCC21 (mixture of isomers) | viral replication | human PBM cells, LAI |  |  | > 100000 nM |
| COc1ccc(-n2c(SCc3cccnc3)nnc2[C@H](Cc2ccccc2)NC(=O)Cc2c(C)[nH]c3ccccc23)cc1 | HIV-1-induced cytopathicity, MTT | MT-4, wild type |  | 50% protection | 2610 ± 390 nM |
| Cc1cc(C#N)cc(C)c1Oc1nc(NC2CCN(Cc3cccc(Cl)c3)CC2)nc2ccccc12 | viral replication, luciferase reporter | TZM-bl, NL4-3 wild type |  |  | 25.3 ± 7.82 nM |
| COc1ccc(-n2c(SCc3ccncc3)nnc2[C@H](Cc2ccccc2)NC(=O)Cc2c(C)[nH]c3ccccc23)cc1 | HIV-1-induced cytopathicity, MTT | MT-4, wild type |  | 50% protection | 2890 ± 340 nM |
| Cc1cc(C#N)cc(C)c1Oc1nc(NC2CCN(Cc3cccc(Br)c3)CC2)nc2ccccc12 | viral replication, luciferase reporter | TZM-bl, NL4-3 wild type |  |  | 38.1 ± 14.5 nM |
| CC(=O)NCCN(CC(=O)NCCN(CC(=O)NCCN(CC(=O)NCCC(N)=O)C(=O)C[C@@H](N)CCCNC(=N)N)C(=O)C[C@@H](N)Cc1ccccc1)C(=O)C[C@@H](N)Cc1ccccc1 | viral replication, measured: reverse transcriptase activity | PBMC, LAI |  |  | 130000 nM |
| Cc1cc(C#N)cc(C)c1Oc1nc(NC2CCN(Cc3ccc([N+](=O)[O-])cc3)CC2)nc2ccccc12 | viral replication, luciferase reporter | TZM-bl, NL4-3 wild type |  |  | 14.8 ± 4.46 nM |
| Cc1[nH]c2ccccc2c1CC(=O)N[C@@H](Cc1ccccc1)C(=O)N(C)c1ccccc1 | viral replication | TZM-GFP, NL4-3 |  |  | 610 ± 200 nM |
